Measurements from different studies.
Each line is one published result; not all experiments were run side by side. ± gives the spread as reported.
Organism: Plasmodium falciparum

The IC50 of `N=C(N)NCCCCC(=O)Nc1cc(C(F)(F)F)cc(NC(=O)c2cc(C(=O)Nc3cc(C(F)(F)F)cc(NC(=O)CCCCNC(=N)N)c3O[C@@H]3CCNC3)ncn2)c1O[C@@H]1CCNC1` is reported as 2670 ± 520 nM (parasite growth, stage-specific treatment; 12 h, early to late ring stage).
For `COc1ncnc(NS(=O)(=O)c2ccc(N)cc2)c1OC`, the IC50 was 426000 ± 85000 nM (cell growth; erythrocytes, 3D7; low-folate medium).
With `COC1=CC(c2ccc[nH]2)=N/C1=C\c1[nH]c(C(=O)O)cc1Cc1ccc(OC(F)(F)F)cc1` the IC50 was greater than 2500 nM (parasite growth, SYBR Green fluorescence; Dd2 (multidrug-resistant), asexual blood stage; 72 h).
`N=C(CC(O)c1nc2ccccc2c2ccc(Cl)cc12)Nc1ccc(F)cc1` (stereo not drawn) has an IC50 of 33.2 nM (parasite growth, HRP2-ELISA; clinical isolates from Gabon; ex vivo, median).
The IC50 of `O=C(O)c1cc(-c2ccc(Br)cc2)nc2ccc(Cl)cc12` is reported as 70300 nM (parasite growth, inhibitor, SYBR Green I; 3D7).
`CCC1=C(CC)/C(=C/NC23C[C@H]4C[C@@H](C2)C[C@@H](C3)C4)N=C1c1ccc(CC)[nH]1` gave an IC50 of less than 1 nM (parasite growth, SYBR Green I fluorescence; D6, chloroquine-sensitive; 72 h).
The IC50 of `CC1=C(C)/C(=C/c2cc(-c3ccc(Cl)cc3)c(C)[nH]2)N=C1c1ccc[nH]1` is reported as greater than 2500 nM (parasite growth, SYBR Green fluorescence; Dd2 (multidrug-resistant), asexual blood stage; 72 h).
The IC50 of `O=C1Nc2ccc(Cl)cc2C12NCCc1c2[nH]c2ccccc12` (stereo not drawn) is reported as 54 nM (parasite growth, [3H]hypoxanthine incorporation; NF54).
For `CC1(C)N=C(N)N=C(N)N1c1ccc(Cl)cc1`, the IC50 was 8 ± 1 nM (growth; 3D7; 72 h).
`CC1=C(Cn2cc(CNC(=O)OC(C)(C)C)nn2)C(=O)c2ccccc2C1=O` has an IC50 of greater than 10000 nM (parasite growth, [3H]hypoxanthine incorporation; NF54; 72 h).
The IC50 of `CCC1=C(CC)/C(=C/c2[nH]c(Cc3ccc(Cl)cc3)cc2Cc2ccc(Cl)cc2)N=C1c1ccc[nH]1` is reported as 96.1 nM (parasite growth, SYBR Green fluorescence; Dd2 (multidrug-resistant), asexual blood stage; 72 h).
With `CC1=C(Cc2cn(CCN3CCNCC3)nn2)C(=O)c2ccccc2C1=O` the IC50 was 6510 nM (parasite growth, [3H]hypoxanthine incorporation; NF54; 72 h).
With `CCCCNC[C@H](O)c1cc(Cl)cc2c1-c1ccc(Cl)cc1C2` the IC50 was 23.6 ± 2.4 nM (3D7; 48 h).
`O[C@@H](c1cc(C(F)(F)F)nc2c(C(F)(F)F)cccc12)[C@H]1CCCCN1` has an IC50 of 14.6 nM (parasite growth, inhibitor, SYBR Green I; 3D7).
`CCc1nc(N)nc(N)c1-c1ccc(Cl)cc1` has an IC50 of 2290 ± 470 nM (cell growth; erythrocytes, Dd2; low-folate medium).
`CCN(CC)CCCC(C)Nc1ccnc2cc(Cl)ccc12` (stereo not drawn) gave an IC50 of 41.1 ± 5.7 nM (asexual parasite proliferation, SYBR Green I fluorescence; 7G8).
`CCN(CC)CCCC(C)Nc1ccnc2cc(Cl)ccc12` (stereo not drawn) has an IC50 of 210 nM (parasite growth; RF12).
With `COC1=CC(c2ccc[nH]2)=N/C1=C\c1cc(Cc2ccc(OC)cc2)c(-c2ccc(OC)cc2)[nH]1` the IC50 was 113 nM (parasite growth, SYBR Green fluorescence; Tm90-C2B (atovaquone-resistant), asexual blood stage; 72 h).
The IC50 of `CC1=C(Cn2cc(CN3CCSC3)nn2)C(=O)c2ccccc2C1=O` is reported as greater than 10000 nM (parasite growth, [3H]hypoxanthine incorporation; NF54; 72 h).
`COc1cc(C)c(-c2ccc(O)c3c2C[C@@H](C)N[C@@H]3C)c2cccc(O)c12` (single isomer, unassigned) gave an IC50 of 43.6 ± 8.9 nM (asexual parasite proliferation, SYBR Green I fluorescence; K1).
The IC50 of `CCN(CC)CCCC(C)Nc1ccnc2cc(Cl)ccc12` (stereo not drawn) is reported as 65.38 ± 0.01 nM (parasite growth, SYBR Green I; 3D7).
With `CCCCCCCNC[C@H](O)c1cc(Cl)cc2c1-c1ccc(Cl)cc1C2` the IC50 was 0.9 ± 0.01 nM (3D7; 48 h).
With `COc1nc2ccc(Br)cc2cc1[C@@H](c1ccccc1)[C@@](O)(CCN(C)C)c1cccc2ccccc12` the IC50 was 1220 nM (parasite growth, inhibitor, SYBR Green I; 3D7).
`OC(c1cc(C(F)(F)F)nc2c(C(F)(F)F)cccc12)C1CCCCN1` (stereo not drawn) has an IC50 of 22.4 ± 15 nM (3D7; 48 h).
`CCN(CC)CCCC(C)Nc1ccnc2cc(Cl)ccc12` (stereo not drawn) has an IC50 of 0.01 ± 0.0047 µg/mL (D6, sensitive; 72 h).
With `Oc1cccc(C(Nc2nccs2)c2ccc3cccnc3c2O)c1` (stereo not drawn) the IC50 was 7130 ± 300 nM (parasite growth, stage-specific treatment; 12 h, early to late trophozoite stage).
With `O=C1C(O)=C([C@H]2CC[C@H](c3ccc(Cl)cc3)CC2)C(=O)c2ccccc21` the IC50 was 3 ± 2 nM (growth; 3D7; 72 h).
The IC50 of `COC1=CC(c2ccc[nH]2)=N/C1=C\c1[nH]c(-c2ccccc2)cc1-c1ccccc1` is reported as 18.9 nM (parasite growth, SYBR Green fluorescence; Tm90-C2B (atovaquone-resistant), asexual blood stage; 72 h).
With `O=C(CC1NCCCC1O)Cn1cnc2cc(Br)c(Cl)cc2c1=O` (stereo not drawn) the IC50 was 0.5 nM (parasite growth; conditional knockdown control line; 72 h, with: 3 nM anhydrotetracycline).
With `O[C@H](CNCCN1CCN(C(c2ccccc2)c2ccccc2)CC1)c1cc(Cl)cc2c1-c1ccc(Cl)cc1C2` the IC50 was 19.5 ± 2 nM (3D7; 48 h).
`COC1=CC(c2ccc[nH]2)=N/C1=C\c1[nH]c(C(=O)O)cc1Cc1ccc(Cl)cc1` gave an IC50 of greater than 2500 nM (parasite growth, SYBR Green fluorescence; Tm90-C2B (atovaquone-resistant), asexual blood stage; 72 h).
For `COc1cccc(N2CCN(C3=Nc4c(F)cccc4[C@H](CC(=O)O)N3c3cc(C(F)(F)F)ccc3OC)CC2)c1`, the IC50 was 10800 nM (parasite growth, inhibitor, SYBR Green I; 3D7).
For `COc1cc(CO)c(-c2ccc3c(c2O)[C@@H](C)N[C@H](C)C3)c2cccc(O)c12`, the IC50 was 38 ± 12 nM (asexual parasite proliferation, SYBR Green I fluorescence; Dd2).
`CCCCCNC[C@@H](O)c1cc(Cl)cc2c1-c1ccc(Cl)cc1C2` gave an IC50 of 5.2 ± 1.2 nM (3D7; 48 h).
The IC50 of `CC1(C)N=C(N)N=C(N)N1c1ccc(Cl)cc1` is reported as 107 ± 13.9 nM (parasite growth; erythrocytes, HB3; low-folate medium).
The IC50 of `CCC(=O)CCCCCCC(=O)Nc1ccccc1` is reported as 83300 nM ([3H]-hypoxanthine incorporation).
The IC50 of `NC(N)=Nc1ccc(-c2ccc(-c3ccc(N=C(N)N)c(Cl)c3)o2)cc1Cl` is reported as 1310 ± 70 nM (parasite growth, stage-specific treatment; 12 h, early to late ring stage).
The IC50 of `CC1=C(Cn2cc(CN3CCNCC3)nn2)C(=O)c2ccccc2C1=O` is reported as greater than 10000 nM (parasite growth, [3H]hypoxanthine incorporation; NF54; 72 h).
The IC50 of `O[C@H](CN[C@H](COCC1CC1)Cc1ccccc1)c1cc(Cl)cc2c1-c1ccc(Cl)cc1C2` is reported as 11.2 ± 1.5 nM (3D7; 48 h).
`Nc1ccc(S(=O)(=O)c2ccc(N)cc2)cc1` has an IC50 of 26500 ± 2460 nM (cell growth; erythrocytes, HB3; low-folate medium).
The IC50 of `CCC1=C(CC)/C(=C/c2cc(Cc3ccc(Cl)cc3)c(C)[nH]2)N=C1c1ccc[nH]1` is reported as 262 nM (parasite growth, SYBR Green fluorescence; Dd2 (multidrug-resistant), asexual blood stage; 72 h).
The IC50 of `CCC1=C(CC)/C(=C/NC23C[C@H]4C[C@@H](C2)C[C@@H](C3)C4)N=C1c1ccc(C)[nH]1` is reported as less than 1 nM (parasite growth, SYBR Green I fluorescence; D6, chloroquine-sensitive; 72 h).
The IC50 of `CC1=C(Cc2cn(CCO)nn2)C(=O)c2ccccc2C1=O` is reported as 1850 nM (parasite growth, [3H]hypoxanthine incorporation; NF54; 72 h).
The IC50 of `O[C@H](CN1CCN(C(c2ccccc2)c2ccccc2)CC1)c1cc(Cl)cc2c1-c1ccc(Cl)cc1C2` is reported as 25.6 ± 7.9 nM (3D7; 48 h).
`CC1=C(Cn2ccnn2)C(=O)c2ccccc2C1=O` gave an IC50 of greater than 10000 nM (parasite growth, [3H]hypoxanthine incorporation; NF54; 72 h).
`Cc1ccccc1C(=O)N1NC(=Nc2ccccc2)SC1(C)C` gave an IC50 of 47900 nM (parasite growth, inhibitor, SYBR Green I; 3D7).
The IC50 of `Cc1[nH]c(/C=C2\N=C(c3ccc[nH]3)C3=C2OCCO3)cc1Cc1ccc(OC(F)(F)F)cc1` is reported as 16.7 nM (parasite growth, SYBR Green fluorescence; Dd2 (multidrug-resistant), asexual blood stage; 72 h).
`CC1=C(Cn2cc(CN3CCN(C(=O)OC(C)(C)C)CC3)nn2)C(=O)c2ccccc2C1=O` gave an IC50 of 1460 nM (parasite growth, [3H]hypoxanthine incorporation; NF54; 72 h).

For quick reference, copied from above:
`CCC1=C(CC)/C(=C/NC23C[C@H]4C[C@@H](C2)C[C@@H](C3)C4)N=C1c1ccc(CC)[nH]1` gave an IC50 of less than 1 nM (parasite growth, SYBR Green I fluorescence; D6, chloroquine-sensitive; 72 h).
The IC50 of `CCN(CC)CCCC(C)Nc1ccnc2cc(Cl)ccc12` (stereo not drawn) is reported as 65.38 ± 0.01 nM (parasite growth, SYBR Green I; 3D7).
`OC(c1cc(C(F)(F)F)nc2c(C(F)(F)F)cccc12)C1CCCCN1` (stereo not drawn) has an IC50 of 22.4 ± 15 nM (3D7; 48 h).
The IC50 of `N=C(N)NCCCCC(=O)Nc1cc(C(F)(F)F)cc(NC(=O)c2cc(C(=O)Nc3cc(C(F)(F)F)cc(NC(=O)CCCCNC(=N)N)c3O[C@@H]3CCNC3)ncn2)c1O[C@@H]1CCNC1` is reported as 2670 ± 520 nM (parasite growth, stage-specific treatment; 12 h, early to late ring stage).
`N=C(CC(O)c1nc2ccccc2c2ccc(Cl)cc12)Nc1ccc(F)cc1` (stereo not drawn) has an IC50 of 33.2 nM (parasite growth, HRP2-ELISA; clinical isolates from Gabon; ex vivo, median).
`CC1=C(Cn2cc(CNC(=O)OC(C)(C)C)nn2)C(=O)c2ccccc2C1=O` has an IC50 of greater than 10000 nM (parasite growth, [3H]hypoxanthine incorporation; NF54; 72 h).
